Measurements collected from several papers.
RPS6KA4 N-terminal kinase domain: Ribosomal protein S6 kinase alpha-4, N-terminal kinase domain (RPS6KA4, Homo sapiens, UniProt O75676)
RPS6KA4 C-terminal kinase domain: Ribosomal protein S6 kinase alpha-4, C-terminal kinase domain (RPS6KA4, Homo sapiens, UniProt O75676)

SMILES | target | test | conditions | scale | remaining binding [%]
Cc1ccc(-c2c(/C=C(\C#N)C(=O)NC(C)C)n(CCCO)c3ncnc(N)c23)cc1 | RPS6KA4 N-terminal kinase domain | binding, competition with immobilised ligand | 1 µM |  | 100
COc1cc(Nc2nccc(-c3cnn4nc(OC)ccc34)n2)cc(C(F)(F)F)c1 | RPS6KA4 C-terminal kinase domain | binding, competition with immobilised ligand | 1 µM |  | 87
CNC(=O)C1CCN(c2cc(C)c(F)cc2NC(=O)c2ccc(-c3cc(O)ccc3C)c(C)c2)CC1 | RPS6KA4 N-terminal kinase domain | binding, competition with immobilised ligand | 1 µM |  | 97
Cc1c[nH]c2nccc(-c3ccc(C(=O)N[C@@H]4c5c(F)cc(C(F)F)cc5C[C@@H]4O)cn3)c12 | RPS6KA4 C-terminal kinase domain | binding, competition with immobilised ligand | 3 µM |  | 61
C=CC(=O)N1CCCC(n2c(=O)c3ncccc3n(Cc3ccc(Oc4ccccc4)cc3)c2=O)C1 (stereo not drawn) | RPS6KA4 N-terminal kinase domain | binding, competition with immobilised ligand | 1 µM |  | 100
CC(C)=CC1OC(C)(C)C2C=C3C(=O)C(Cl)=CC(O)C3C3C(O)C4OC4C(=O)C132 (stereo not drawn) | RPS6KA4 N-terminal kinase domain | binder, KINOMEscan competition binding | 10 µM | baseline: DMSO control | 97
CNC1C[S+]2CC[S+]3CC[S+](C1)[Ru-4]321([N]=C=S)[n]2c3ccc(OC)cc3c3c4c(c5cc(F)c[n+]1c5c32)C(=O)NC4=O (stereo not drawn) | RPS6KA4 N-terminal kinase domain | KinomeScan | 0.1 µM | baseline: untreated | 77
Cc1cnc2nc1Nc1cccc(c1)COC/C=C/COCc1cc(ccc1OCCN1CCOCC1)N2 | RPS6KA4 C-terminal kinase domain | binding, competition with immobilised ligand | 0.1 µM |  | 90
COc1cc(Nc2nc(C)cc(-c3cnn4nc(OC)ccc34)n2)cc(C(F)(F)F)c1 | RPS6KA4 C-terminal kinase domain | binding, competition with immobilised ligand | 1 µM |  | 84
Nc1ncc2c(n1)-c1c([nH]c3ccc(C4=CCOCC4)cc13)CCC2 | RPS6KA4 C-terminal kinase domain | binding, competition with immobilised ligand | 1 µM |  | 87
CCN1CCN(Cc2ccc(C(=O)Nc3ccc(C)c(NCc4cnc5[nH]ccc5c4OC)c3)cc2C(F)(F)F)CC1 | RPS6KA4 C-terminal kinase domain | binding, competition with immobilised ligand | 1 µM |  | 78
COc1c(Cl)cccc1Nc1c(-c2ccncc2C#C[C@@]2(C)CCCN2C(=O)/C=C/CN(C)C)[nH]c2c1C(=O)NCC2 | RPS6KA4 C-terminal kinase domain | binding, competition with immobilised ligand | 3 µM |  | 91

Repeated from above:
SMILES | target | test | conditions | scale | remaining binding [%]
Cc1cnc2nc1Nc1cccc(c1)COC/C=C/COCc1cc(ccc1OCCN1CCOCC1)N2 | RPS6KA4 C-terminal kinase domain | binding, competition with immobilised ligand | 0.1 µM |  | 90
COc1cc(Nc2nc(C)cc(-c3cnn4nc(OC)ccc34)n2)cc(C(F)(F)F)c1 | RPS6KA4 C-terminal kinase domain | binding, competition with immobilised ligand | 1 µM |  | 84
